{"data": "Published values from different studies", "SCTR": "Secretin receptor (SCTR, Homo sapiens, UniProt P47872)", "note": "Lines come from different studies, so protocols differ. Numbers after ± are the reported error."}
{"SMILES": "COC(=O)C1=CNC=C(C(=O)OC)C1c1ccc(F)c(C(F)(F)F)c1", "target": "Intermediate conductance calcium-activated potassium channel protein 4 (KCNN4, Homo sapiens, UniProt O15554, T212F/V272F)", "test": "ion current, whole-cell patch clamp", "setting": "fenestration mutant", "scale": "reference: mutant over wild type", "quantity": "potency fold shift", "value": "~4 fold"}
{"SMILES": "CC(C)CCC[C@@H](C)[C@H]1CC[C@H]2[C@@H]3CC=C4C[C@@H](OS(=O)(=O)O)CC[C@]4(C)[C@H]3CC[C@]12C", "target": "Prothrombin (F2, Homo sapiens, UniProt P00734)", "test": "Spectrozyme TH hydrolysis", "setting": "125 µM, pH 7.4, 25 °C", "quantity": "Vmax", "value": "19.5 ± 1.3 mAU/min"}
{"SMILES": "COc1ccccc1-c1cc(C(F)(F)F)nc(S(=O)(=O)CCCC(=O)Nc2ccc(F)cc2F)n1", "target": "SCTR", "test": "cAMP accumulation, positive allosteric modulator", "test system": "CHO-K1 overexpressing SCTR", "setting": "with: EC10-EC20 secretin peptide mix", "scale": "reference: EC95 peptide mix", "quantity": "Emax", "value": "40 ± 11%"}
{"SMILES": "CCCCCCCC/C=C\\CCCCCCCC(=O)OC[C@@H]1OCCC[C@@H]1OP(=O)(O)S (some centres unmarked)", "target": "Lysophosphatidic acid receptor 2 (LPAR2, Homo sapiens, UniProt Q9HBW0)", "test": "agonist, TGFα shedding", "quantity": "Emax", "value": "29%"}
{"SMILES": "NC(=O)C1CCNC(=O)C(CCCNC(=O)c2cnccn2)NC(=O)C(Cc2ccco2)NC(=O)C(CC2CC2)NC(=O)C=CC(=O)N1 (centres unmarked)", "target": "Vascular endothelial growth factor receptor 2 (KDR, Homo sapiens, UniProt P35968)", "test": "DNA-templated library selection", "setting": "one selection round", "quantity": "enrichment factor", "value": 2.4}
{"SMILES": "N#Cc1cccc(-c2ccc(=O)n(Cc3cccc(-c4ncc(OCC5CCN(CC(=O)NCCOCCNc6ccc7c(c6)C(=O)N(C6CCC(=O)NC6=O)C7=O)CC5)cn4)c3)n2)c1 (centres unmarked)", "target": "Hepatocyte growth factor receptor (MET, Homo sapiens, UniProt P08581)", "test": "degrader", "test system": "EBC-1", "quantity": "Dmax", "value": "99%"}
{"SMILES": "O=C(Nc1ccc(C(=O)Nc2ccc(C(=O)Nc3ccc(S(=O)(=O)O)c4cc(S(=O)(=O)O)cc(S(=O)(=O)O)c34)cc2)cc1)Nc1ccc(C(=O)Nc2ccc(C(=O)Nc3ccc(S(=O)(=O)O)c4cc(S(=O)(=O)O)cc(S(=O)(=O)O)c34)cc2)cc1", "target": "Neutrophil elastase (ELANE, Homo sapiens, UniProt P08246)", "test": "substrate S-1384 hydrolysis", "setting": "pH 7.4, 37 °C, enzyme 400 nM", "quantity": "Vmax", "value": "18.3 ± 0.77 mAU/min"}
{"SMILES": "COc1ccc(-c2cc(C(F)(F)F)nc(S(=O)(=O)CCCC(=O)Nc3ccc(F)c(Cl)c3)n2)cc1OC", "target": "SCTR", "test": "increase of tracer binding, TR-FRET", "test system": "HEK293 membranes", "setting": "with: Fluo-Sec 6 nM", "quantity": "Emax", "value": "142 ± 5.9%"}
{"SMILES": "Nc1nc2c(ncn2[C@H]2C[C@H](O)[C@@H](COP(=O)(O)OP(=O)(O)C(F)(F)P(=O)(O)O)O2)c(=O)[nH]1", "target": "DNA polymerase beta (POLB, Homo sapiens, UniProt P06746, I260M)", "test": "nucleotide incorporation, substrate, single turnover kinetics", "setting": "dG misincorporation opposite A", "quantity": "kpol/Kd", "value": "10 ± 3.5 M⁻¹ s⁻¹"}
{"SMILES": "OC[C@H]1Oc2c(I)c(I)cc3c2[C@@H](OC3)[C@H]1O", "target": "Galectin-8, N-terminal CRD (LGALS8, Homo sapiens, UniProt O00214)", "test": "fluorescence polarization", "setting": "unit not given", "scale": "reference: methyl beta-galactoside", "quantity": "affinity increase", "value": "> 3"}
{"SMILES": "CNC(=O)c1cc(Oc2ccc(NC(=O)Nc3ccccc3)cc2)ccn1", "target": "Signal peptidase IB (spsB, Staphylococcus aureus, UniProt Q5HHB9)", "test": "enzyme activity, FRET peptide cleavage", "test system": "Staphylococcus aureus membranes", "setting": "50 µM", "scale": "reference: DMSO", "quantity": "remaining activity", "value": "1.18 ± 0.16 fold"}
{"SMILES": "Cc1cn(C2CC(O)C(COP(=O)(O)OP(=O)(O)C(F)(Cl)P(=O)(O)O)O2)c(=O)[nH]c1=O (mixture of isomers)", "target": "DNA polymerase beta (POLB, Homo sapiens, UniProt P06746)", "test": "substrate, single turnover kinetics", "quantity": "kpol/Kd", "value": "140000 ± 30000 M⁻¹ s⁻¹"}
{"SMILES": "CCOC(=O)c1cnc(CNCCc2c[nH]c3cccc(C)c23)s1", "target": "5-hydroxytryptamine receptor 2A (HTR2A, Homo sapiens, UniProt P28223)", "test": "β-arrestin recruitment, agonist", "quantity": "Emax", "value": "64.8%"}
{"SMILES": "CCN1C(=O)N(c2cc(NC(=O)c3cccc(C(F)(F)F)c3)ccc2C)Cc2cnc(Nc3ccc(C)nc3)nc21", "target": "FGFR4/Transcription factor ETV6 (Homo sapiens, UniProt P22455+P41212)", "test": "cell growth", "test system": "Ba/F3 expressing TEL-FGFR4", "setting": "72 h", "quantity": "GI50", "value": "20 nM"}
